Assay results collected from several papers.
Parts stem from different laboratories: compare values within a part only. “And” joins repeats or separate records; there may be more than shown.
Sequence of UniProt P10721 (whole entry, unmodified, looked up): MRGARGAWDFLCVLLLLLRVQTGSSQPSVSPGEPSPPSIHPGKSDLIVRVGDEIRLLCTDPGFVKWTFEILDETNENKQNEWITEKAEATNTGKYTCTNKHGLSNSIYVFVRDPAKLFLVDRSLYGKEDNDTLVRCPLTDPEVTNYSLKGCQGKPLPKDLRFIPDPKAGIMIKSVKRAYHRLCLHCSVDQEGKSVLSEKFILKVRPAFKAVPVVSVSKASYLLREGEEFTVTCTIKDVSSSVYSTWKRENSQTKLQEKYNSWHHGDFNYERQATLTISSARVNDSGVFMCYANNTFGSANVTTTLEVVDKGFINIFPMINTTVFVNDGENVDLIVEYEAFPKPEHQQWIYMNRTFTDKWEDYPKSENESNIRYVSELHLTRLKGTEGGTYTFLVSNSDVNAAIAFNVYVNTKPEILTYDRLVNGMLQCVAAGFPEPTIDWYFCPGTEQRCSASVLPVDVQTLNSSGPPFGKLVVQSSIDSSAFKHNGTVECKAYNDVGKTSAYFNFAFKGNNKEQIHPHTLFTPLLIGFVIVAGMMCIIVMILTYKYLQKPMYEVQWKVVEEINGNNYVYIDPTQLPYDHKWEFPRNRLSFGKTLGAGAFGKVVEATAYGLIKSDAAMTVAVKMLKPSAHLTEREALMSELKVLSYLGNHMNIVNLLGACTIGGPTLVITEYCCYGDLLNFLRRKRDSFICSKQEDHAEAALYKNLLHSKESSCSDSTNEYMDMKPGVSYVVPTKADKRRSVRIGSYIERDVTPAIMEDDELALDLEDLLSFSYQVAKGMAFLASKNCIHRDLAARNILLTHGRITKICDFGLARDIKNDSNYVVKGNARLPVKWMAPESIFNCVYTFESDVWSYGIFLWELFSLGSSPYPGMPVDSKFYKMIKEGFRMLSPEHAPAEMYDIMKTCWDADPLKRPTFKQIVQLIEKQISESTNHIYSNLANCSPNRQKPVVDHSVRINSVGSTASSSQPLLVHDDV
Sequence of UniProt O14757 (whole entry, looked up): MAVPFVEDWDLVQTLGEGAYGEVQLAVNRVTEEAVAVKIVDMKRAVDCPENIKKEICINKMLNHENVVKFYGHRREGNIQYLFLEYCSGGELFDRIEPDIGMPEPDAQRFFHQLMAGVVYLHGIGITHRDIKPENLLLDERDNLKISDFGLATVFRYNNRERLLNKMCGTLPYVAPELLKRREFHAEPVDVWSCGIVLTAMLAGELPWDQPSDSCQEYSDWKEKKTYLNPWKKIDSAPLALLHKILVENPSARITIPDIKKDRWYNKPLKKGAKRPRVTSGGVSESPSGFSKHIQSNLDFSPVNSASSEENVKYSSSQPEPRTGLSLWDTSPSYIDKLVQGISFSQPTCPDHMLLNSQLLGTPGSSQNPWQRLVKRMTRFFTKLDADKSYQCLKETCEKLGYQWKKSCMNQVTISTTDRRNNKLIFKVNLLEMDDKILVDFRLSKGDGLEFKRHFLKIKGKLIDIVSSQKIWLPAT
Sequence of UniProt Q13873 (whole entry, looked up): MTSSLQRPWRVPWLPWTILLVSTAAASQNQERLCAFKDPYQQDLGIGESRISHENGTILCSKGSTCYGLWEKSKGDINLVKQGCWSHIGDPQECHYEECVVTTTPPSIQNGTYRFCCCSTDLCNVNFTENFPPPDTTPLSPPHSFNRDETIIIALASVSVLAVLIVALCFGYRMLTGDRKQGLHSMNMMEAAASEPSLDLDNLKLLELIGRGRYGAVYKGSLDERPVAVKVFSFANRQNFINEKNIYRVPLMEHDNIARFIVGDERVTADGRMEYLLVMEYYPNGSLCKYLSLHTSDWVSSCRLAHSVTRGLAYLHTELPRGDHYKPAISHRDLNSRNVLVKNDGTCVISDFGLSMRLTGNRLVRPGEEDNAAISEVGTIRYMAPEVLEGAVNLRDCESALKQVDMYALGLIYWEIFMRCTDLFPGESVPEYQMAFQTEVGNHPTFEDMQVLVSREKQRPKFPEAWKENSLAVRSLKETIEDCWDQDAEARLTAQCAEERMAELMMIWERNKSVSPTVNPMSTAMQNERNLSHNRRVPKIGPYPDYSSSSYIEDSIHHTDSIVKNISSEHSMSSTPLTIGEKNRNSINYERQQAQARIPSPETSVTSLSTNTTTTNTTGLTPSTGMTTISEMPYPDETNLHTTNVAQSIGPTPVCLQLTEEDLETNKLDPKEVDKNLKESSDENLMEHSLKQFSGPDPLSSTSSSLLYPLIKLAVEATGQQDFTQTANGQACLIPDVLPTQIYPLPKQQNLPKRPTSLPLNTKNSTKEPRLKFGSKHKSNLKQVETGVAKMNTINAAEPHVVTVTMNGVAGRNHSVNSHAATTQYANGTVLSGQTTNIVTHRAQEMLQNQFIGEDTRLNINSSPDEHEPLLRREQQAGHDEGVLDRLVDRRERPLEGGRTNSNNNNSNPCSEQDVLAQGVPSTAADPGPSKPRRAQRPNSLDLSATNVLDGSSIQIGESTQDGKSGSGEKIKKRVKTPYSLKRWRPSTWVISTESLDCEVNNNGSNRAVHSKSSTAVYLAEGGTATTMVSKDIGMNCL
Sequence of UniProt O15264 (whole entry, looked up): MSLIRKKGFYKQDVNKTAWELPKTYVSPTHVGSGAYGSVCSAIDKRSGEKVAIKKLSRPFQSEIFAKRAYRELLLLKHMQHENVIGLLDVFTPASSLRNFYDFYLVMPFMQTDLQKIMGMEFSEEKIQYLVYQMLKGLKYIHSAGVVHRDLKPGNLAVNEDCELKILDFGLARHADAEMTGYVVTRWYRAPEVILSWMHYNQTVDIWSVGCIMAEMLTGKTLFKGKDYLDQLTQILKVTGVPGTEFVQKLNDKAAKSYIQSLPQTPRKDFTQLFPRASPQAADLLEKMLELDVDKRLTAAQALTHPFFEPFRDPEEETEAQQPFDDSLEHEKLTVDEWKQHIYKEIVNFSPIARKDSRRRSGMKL
Sequence of UniProt Q8NG66 (whole entry, looked up): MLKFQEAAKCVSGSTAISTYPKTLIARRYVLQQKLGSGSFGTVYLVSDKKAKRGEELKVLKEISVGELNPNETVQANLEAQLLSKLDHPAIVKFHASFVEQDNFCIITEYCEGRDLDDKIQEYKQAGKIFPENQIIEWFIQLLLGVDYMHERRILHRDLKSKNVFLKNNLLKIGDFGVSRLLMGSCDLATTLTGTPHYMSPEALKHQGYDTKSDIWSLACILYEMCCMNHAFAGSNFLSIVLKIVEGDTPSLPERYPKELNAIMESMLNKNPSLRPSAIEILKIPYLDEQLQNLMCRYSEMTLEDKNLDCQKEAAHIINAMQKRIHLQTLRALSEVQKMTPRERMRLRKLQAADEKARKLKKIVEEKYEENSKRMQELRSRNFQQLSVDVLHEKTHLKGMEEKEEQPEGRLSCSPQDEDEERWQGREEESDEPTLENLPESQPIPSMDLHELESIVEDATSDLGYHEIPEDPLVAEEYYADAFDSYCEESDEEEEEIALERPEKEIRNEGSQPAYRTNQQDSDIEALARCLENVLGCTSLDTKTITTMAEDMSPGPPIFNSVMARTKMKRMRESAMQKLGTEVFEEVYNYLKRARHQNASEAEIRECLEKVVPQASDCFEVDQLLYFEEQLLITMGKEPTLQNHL
Sequence of UniProt P51817 (whole entry, looked up): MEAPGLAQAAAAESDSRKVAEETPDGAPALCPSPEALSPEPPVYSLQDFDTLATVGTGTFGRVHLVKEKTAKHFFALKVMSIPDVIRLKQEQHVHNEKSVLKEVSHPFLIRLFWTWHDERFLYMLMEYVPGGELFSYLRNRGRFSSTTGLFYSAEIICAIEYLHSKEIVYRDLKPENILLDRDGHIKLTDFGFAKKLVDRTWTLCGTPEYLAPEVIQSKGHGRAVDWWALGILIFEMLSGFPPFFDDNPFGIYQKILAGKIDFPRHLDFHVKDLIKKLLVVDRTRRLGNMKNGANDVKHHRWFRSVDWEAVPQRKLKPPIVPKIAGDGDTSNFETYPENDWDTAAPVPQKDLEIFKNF
Sequence of UniProt Q06187 (whole entry, looked up): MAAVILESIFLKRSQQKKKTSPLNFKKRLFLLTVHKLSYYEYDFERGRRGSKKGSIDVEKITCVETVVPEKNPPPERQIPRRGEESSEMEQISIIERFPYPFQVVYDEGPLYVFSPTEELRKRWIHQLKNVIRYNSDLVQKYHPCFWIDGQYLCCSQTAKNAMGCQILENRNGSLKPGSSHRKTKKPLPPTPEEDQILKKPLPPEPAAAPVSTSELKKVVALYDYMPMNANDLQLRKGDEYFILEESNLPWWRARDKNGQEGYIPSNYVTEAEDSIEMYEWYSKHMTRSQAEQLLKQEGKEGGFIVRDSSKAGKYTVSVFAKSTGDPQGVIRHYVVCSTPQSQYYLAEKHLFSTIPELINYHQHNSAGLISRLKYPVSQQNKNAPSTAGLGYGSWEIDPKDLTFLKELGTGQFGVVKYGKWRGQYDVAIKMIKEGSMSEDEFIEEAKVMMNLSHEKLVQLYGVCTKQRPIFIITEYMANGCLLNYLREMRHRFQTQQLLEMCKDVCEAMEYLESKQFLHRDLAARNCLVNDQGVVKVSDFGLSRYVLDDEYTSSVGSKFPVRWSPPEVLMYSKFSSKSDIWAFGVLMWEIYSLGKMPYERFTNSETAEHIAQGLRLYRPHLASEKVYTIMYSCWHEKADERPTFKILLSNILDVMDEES
Sequence of UniProt Q9HBH9 (whole entry, looked up): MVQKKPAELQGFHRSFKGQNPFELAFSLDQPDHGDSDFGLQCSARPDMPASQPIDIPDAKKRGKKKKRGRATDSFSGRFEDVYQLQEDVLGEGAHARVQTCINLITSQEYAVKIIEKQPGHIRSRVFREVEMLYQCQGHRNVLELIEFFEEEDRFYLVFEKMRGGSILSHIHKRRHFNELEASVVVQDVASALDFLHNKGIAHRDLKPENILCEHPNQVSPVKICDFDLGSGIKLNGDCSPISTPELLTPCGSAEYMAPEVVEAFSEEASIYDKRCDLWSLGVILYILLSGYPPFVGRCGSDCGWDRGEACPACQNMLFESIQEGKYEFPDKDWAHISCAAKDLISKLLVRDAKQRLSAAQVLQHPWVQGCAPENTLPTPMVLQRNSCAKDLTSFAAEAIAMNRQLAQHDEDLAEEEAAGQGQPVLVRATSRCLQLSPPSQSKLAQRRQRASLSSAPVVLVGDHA

Sample 1 — cell line: HEK-293T/ACE2; concentration: concentration not given; time: 16 (unit not given); relative to: vehicle
SMILES | viability [%]
CCCCC(CC)COC(=O)C(C#N)=C(c1ccccc1)c1ccccc1 (stereo not drawn) | 93.7
CCCc1nn(C)c2c(=O)[nH]c(-c3cc(S(=O)(=O)N4CCN(C)CC4)ccc3OCC)nc12 | 99.4
CC(=O)[C@H]1CC[C@H]2[C@@H]3CCC4=CC(=O)CC[C@]4(C)[C@H]3CC[C@]12C | 102
CCC(=O)O[C@H]1CC[C@H]2[C@@H]3CCC4=CC(=O)CC[C@]4(C)[C@H]3CC[C@]12C | 101
CC(=O)S[C@@H]1CC2=CC(=O)CC[C@]2(C)[C@H]2CC[C@@]3(C)[C@@H](CC[C@@]34CCC(=O)O4)[C@H]12 | 102
CC(C)OC(=O)CCC/C=C\C[C@@H]1[C@@H](CC[C@@H](O)CCc2ccccc2)[C@H](O)C[C@@H]1O | 97.8
c1ccc(CN(CC2=NCCN2)c2ccccc2)cc1 | 96.8
CC(O)(P(=O)(O)O)P(=O)(O)O | 99.3
COc1ccc(Cl)cc1C(=O)NCCc1ccc(S(=O)(=O)NC(=O)NC2CCCCC2)cc1 | 97.8
Clc1ccc(C(Cn2ccnc2)OCc2csc3c(Cl)cccc23)c(Cl)c1 (stereo not drawn) | 96.7
CN(C)CCn1nnnc1SCC1=C(C(=O)O)N2C(=O)[C@@H](NC(=O)Cc3csc(N)n3)[C@H]2SC1 | 101
CCCN(CCC)S(=O)(=O)c1ccc(C(=O)O)cc1 | 97.4

Sample 2 — effect on: cell-free assay; technique: competition with immobilised ligand; concentration: 1 µM
SMILES: N#CC1(c2ccccn2)CCN(Cc2cc(C(=O)O)c(=O)n3ccccc23)CC1
target | remaining binding [%]
Serine/threonine-protein kinase WNK3 (WNK3, Homo sapiens, UniProt Q9BYP7) | 99
Serine/threonine-protein kinase DCLK3 (DCLK3, Homo sapiens, UniProt Q9C098) | 89
Mitogen-activated protein kinase kinase kinase 20 (MAP3K20, Homo sapiens, UniProt Q9NYL2) | 100
Atypical kinase COQ8B, mitochondrial (COQ8B, Homo sapiens, UniProt Q96D53) | 90
MAP/microtubule affinity-regulating kinase 3 (MARK3, Homo sapiens, UniProt P27448) | 100
Mitogen-activated protein kinase 7 (MAPK7, Homo sapiens, UniProt Q13164) | 94
Serine/threonine-protein kinase Chk1 (CHEK1, Homo sapiens, UniProt O14757) | 100
Serine/threonine-protein kinase Nek11 (NEK11, Homo sapiens, UniProt Q8NG66) | 89
Serine/threonine-protein kinase Sgk3 (SGK3, Homo sapiens, UniProt Q96BR1) | 74
Serine/threonine-protein kinase/endoribonuclease IRE1 (ERN1, Homo sapiens, UniProt O75460) | 81
Mast/stem cell growth factor receptor Kit (KIT, Homo sapiens, UniProt P10721, T670I/V559D) | 100
5'-AMP-activated protein kinase catalytic subunit alpha-1 (PRKAA1, Homo sapiens, UniProt Q13131) | 100
Serine/threonine-protein kinase TNNI3K (TNNI3K, Homo sapiens, UniProt Q59H18) | 100
Tyrosine-protein kinase JAK3, JH1 (JAK3, Homo sapiens, UniProt P52333) | 95
Serine/threonine-protein kinase N2 (PKN2, Homo sapiens, UniProt Q16513) | 100
Phosphatidylinositol 4-phosphate 5-kinase type-1 gamma (PIP5K1C, Homo sapiens, UniProt O60331) | 89
Serine/threonine-protein kinase pim-3 (PIM3, Homo sapiens, UniProt Q86V86) | 100
Tyrosine-protein kinase Yes (YES1, Homo sapiens, UniProt P07947) | 94
cAMP-dependent protein kinase catalytic subunit PRKX (PRKX, Homo sapiens, UniProt P51817) | 100
Bone morphogenetic protein receptor type-2 (BMPR2, Homo sapiens, UniProt Q13873) | 89
Atypical kinase COQ8A, mitochondrial (COQ8A, Homo sapiens, UniProt Q8NI60) | 100
Dual specificity protein kinase CLK4 (CLK4, Homo sapiens, UniProt Q9HAZ1) | 100
Mast/stem cell growth factor receptor Kit (KIT, Homo sapiens, UniProt P10721, V559D/V654A) | 100
Phosphatidylinositol 4,5-bisphosphate 3-kinase catalytic subunit alpha isoform (PIK3CA, Homo sapiens, UniProt P42336, C420R) | 97
Mitogen-activated protein kinase kinase kinase 1 (MAP3K1, Homo sapiens, UniProt Q13233) | 98

Sample 3 — Structure (SMILES): COc1ccc2c(c1)/C(=C/c1cnc[nH]1)C(=O)N2; effect on: enzyme activity; mode: inhibitor; concentration: 0.5 µM
target | test | scale | remaining activity [%]
Cyclin-dependent kinase 9, with cyclin T1 (CDK9, Homo sapiens, UniProt P50750) |  | relative to: control | 67.4
Serine/threonine-protein kinase Nek4 (NEK4, Homo sapiens, UniProt P51957) |  | relative to: control | 96
RAC-gamma serine/threonine-protein kinase (AKT3, Homo sapiens, UniProt Q9Y243) |  | relative to: control | 101
Dual specificity mitogen-activated protein kinase kinase 6 (MAP2K6, Homo sapiens, UniProt P52564) |  | relative to: control | 90.1
Serine/threonine-protein kinase 33 (STK33, Homo sapiens, UniProt Q9BYT3) | radiometric |  | 74.7
Tyrosine-protein kinase Lyn (LYN, Homo sapiens, UniProt P07948) |  | relative to: control | 88.3
Serine/threonine-protein kinase WNK2 (WNK2, Homo sapiens, UniProt Q9Y3S1) |  | relative to: control | 102
Mitogen-activated protein kinase 13 (MAPK13, Homo sapiens, UniProt O15264) |  | relative to: control | 102
Casein kinase II subunit alpha (CSNK2A1, Homo sapiens, UniProt P68400) |  | relative to: control | 67.8
Casein kinase I isoform alpha (CSNK1A1, Homo sapiens, UniProt P48729) |  | relative to: control | 86.4
Serine/threonine-protein kinase 38 (STK38, Homo sapiens, UniProt Q15208) |  | relative to: control | 86.2
Mitogen-activated protein kinase 12 (MAPK12, Homo sapiens, UniProt P53778) |  | relative to: control | 95.5
Ephrin type-A receptor 5 (EPHA5, Homo sapiens, UniProt P54756) |  | relative to: control | 86.2
Mitogen-activated protein kinase kinase kinase kinase 2 (MAP4K2, Homo sapiens, UniProt Q12851) |  | relative to: control | 42.6
Protein kinase C iota type (PRKCI, Homo sapiens, UniProt P41743) |  | relative to: control | 96.9
cGMP-dependent protein kinase 1 (PRKG1, Homo sapiens, UniProt Q13976) |  | relative to: control | 99
Serine/threonine-protein kinase PLK2 (PLK2, Homo sapiens, UniProt Q9NYY3) |  | relative to: control | 95.2
MAP kinase-interacting serine/threonine-protein kinase 2 (MKNK2, Homo sapiens, UniProt Q9HBH9) |  | relative to: control | 84.9
Tyrosine-protein kinase BTK (BTK, Homo sapiens, UniProt Q06187) |  | relative to: control | 101
Mast/stem cell growth factor receptor Kit (KIT, Homo sapiens, UniProt P10721) |  | relative to: control | 84.1
Interleukin-1 receptor-associated kinase 4 (IRAK4, Homo sapiens, UniProt Q9NWZ3) |  | relative to: control | 92.2
Serine/threonine-protein kinase Chk1 (CHEK1, Homo sapiens, UniProt O14757) |  | relative to: control | 76
Leucine-rich repeat serine/threonine-protein kinase 2 (LRRK2, Homo sapiens, UniProt Q5S007) |  | relative to: control | 27.9
Protein kinase C delta type (PRKCD, Homo sapiens, UniProt Q05655) |  | relative to: control | 95.5
Mitogen-activated protein kinase kinase kinase 10 (MAP3K10, Homo sapiens, UniProt Q02779) |  | relative to: control | 92.9

Sample 4 — organism: Leishmania donovani; effect on: parasite growth
SMILES: c1ccc(Oc2ccc(Nc3c4c(nc5ccccc35)CCC4)cc2)cc1
test system | conditions | inhibition
DD8 amphotericin B-resistant, promastigotes | 0.0066 µM | 1% and 2% and 5%
DD8 amphotericin B-resistant, intracellular amastigotes | 0.4 µM | 36% and 37% and 32% and 35%
 | 0.2 µM, intracellular, amastigote | 3%
DD8 amphotericin B-resistant, promastigotes | 0.33 µM | 10% and 5% and 8% and 2%

Some of these lines once more (sample 2):
target | remaining binding [%]
Serine/threonine-protein kinase pim-3 (PIM3, Homo sapiens, UniProt Q86V86) | 100
Mast/stem cell growth factor receptor Kit (KIT, Homo sapiens, UniProt P10721, T670I/V559D) | 100
Serine/threonine-protein kinase TNNI3K (TNNI3K, Homo sapiens, UniProt Q59H18) | 100
Serine/threonine-protein kinase DCLK3 (DCLK3, Homo sapiens, UniProt Q9C098) | 89
